Measurements of several laboratories.
Compare with care: the assays were run in different laboratories. ± gives the spread as reported.

The plasma concentration of `Cn1cc([C@H]2C[C@H]3CSC(N)=N[C@@]3(c3ccc(F)cc3F)CO2)cn1` is reported as 79 nM (male 129/SVE mouse, plasma; subcutaneous, 10 mg/kg, 9 h).
`CC(=O)NCc1cc2c(cc1F)C(=O)N(C1CCC(=O)NC1=O)C2` (stereo not shown) gave a plasma concentration of 0.35 ng/mL (cynomolgus monkey, male; oral, 0.3 mg/kg parent drug, 3 h).
For `O=C(O)CCc1cccc(O)c1O`, the plasma concentration was 943 nM (human plasma; mean).
With `O=C1CCC(N2Cc3cc(CO)c(F)cc3C2=O)C(=O)N1` (stereo not shown) the plasma concentration was 1.06 ± 0.94 ng/mL (cynomolgus monkey, male; oral, 0.3 mg/kg parent drug, 3 h).
`O=C(O)CCc1cccc(O)c1` has a plasma concentration of 1210 nM (human plasma; median).
The plasma concentration of `CC(C)C[C@H](NC(=O)[C@@H](Cc1c[nH]c2ccccc12)NC(=O)[C@H](Cc1ccc(O)cc1)NC(=O)[C@H](CO)NC(=O)[C@H](Cc1c[nH]c2ccccc12)NC(=O)[C@H](Cc1c[nH]cn1)NC(=O)[C@@H]1CCC(=O)N1)C(=O)N[C@@H](CCCNC(=N)N)C(=O)N1CCC[C@H]1C(=O)NCC(N)=O` is reported as 0.0288 ng/mL (Chinese girls, precocious puberty, plasma; intramuscular, 22.5 mg, 8640 h, month 12, mean).
`Cc1c(C(=O)O)ccc2c3n(nc12)[C@@H]1[C@H](C3)N(CC2CC2)[C@@]2(C(=O)Nc3cc(Cl)ccc32)[C@H]1c1cccc(Cl)c1F` has a plasma concentration of 1880 nM (female BALB/c nude mice, SJSA-1 xenograft, plasma; oral, 2 mg/kg once daily, 4 h).
For `CCOCc1nc(O)c(-c2nnc(Cc3ccc(Cl)cn3)o2)c(O)c1-c1c(OC)cccc1OC`, the plasma concentration was 104 nM (rat, anaesthetised, cannulated, plasma; intravenous infusion, 1 µg/kg/min, 15 min).
For `NCc1cc2c(cc1F)C(=O)N(C1CCC(=O)NC1=O)C2` (stereo not shown), plasma concentration read “not detected” (cynomolgus monkey; oral, 0.3 mg/kg, 12 h).
`C[C@H](CCC(=O)NCC(=O)O)[C@H]1CC[C@H]2[C@@H]3[C@H](O)C[C@@H]4C[C@H](O)CC[C@]4(C)[C@H]3CC[C@]12C` gave a plasma concentration of 441 ng/mL (men, T/C genotype, plasma; dose not given, geometric mean).
The plasma concentration of `COc1ccc(C2CC(=O)c3c(O)cc(O)cc3O2)cc1O[C@@H]1O[C@H](C(=O)O)[C@@H](O)[C@H](O)[C@H]1O` (stereo partly shown) is reported as 599 nM (human plasma; median).
With `C[C@H]1O[C@@H](O[C@H]2CC[C@@]3(C)[C@@H](CC[C@]4(C)[C@@H]3C=C[C@]35OC[C@@]6(CCC(C)(C)C[C@H]63)[C@@H](O)C[C@]54C)[C@]2(C)CO)[C@H](O)[C@@H](O[C@@H]2O[C@H](CO)[C@@H](O)[C@H](O)[C@H]2O)[C@H]1O` the plasma concentration was 14.8 ng/mL (UHPLC-MS/MS; mouse, plasma; oral, 50 mg/kg, 1 h).
For `COc1cccc(O)c1OS(=O)(=O)O`, the plasma concentration was 5690 nM (human plasma; mean).
With `O=Cc1cc2c(cc1F)C(=O)N(C1CCC(=O)NC1=O)C2` (stereo not shown) the plasma concentration was 0.3 ng/mL (cynomolgus monkey, male; oral, 0.3 mg/kg parent drug, 1 h).
`O=C(O)[C@H]1O[C@@H](Oc2ccccc2O)[C@H](O)[C@@H](O)[C@@H]1O` has a plasma concentration of 236 nM (human plasma; mean).
`Cc1c(-c2ccc(N3CCc4cccc(C(=O)Nc5nc6ccccc6s5)c4C3)nc2C(=O)O)cnn1CC12CC3(C)CC(C)(C1)CC(OCCNCC[C@H](O)CO)(C3)C2` has a plasma concentration of under 4 ng/mL (anaesthetized male beagle dog; iv infusion, 0.1 mg/kg/min, 45 min).
